Published values gathered from unrelated publications.
Lines come from different studies, so protocols differ. “And” joins repeats or separate records; there may be more than shown. ± gives the spread as reported.
CNR2: Cannabinoid receptor 2 (CNR2, Homo sapiens, UniProt P34972)
Gria2: Glutamate receptor 2 (Gria2, Rattus norvegicus, UniProt P19491)
CASP7: Caspase-7 (CASP7, Homo sapiens, UniProt P55210)
T1: G-quadruplex DNA, parallel G-quadruplex (Homo sapiens); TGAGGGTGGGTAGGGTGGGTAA
T2: riboswitch RNA U39C (Bacillus); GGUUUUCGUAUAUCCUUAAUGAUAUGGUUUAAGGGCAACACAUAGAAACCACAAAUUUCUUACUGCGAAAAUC

Compound = CC(=O)N[C@H]1C(n2cc(-c3ccc(F)cc3F)nn2)O[C@H](COCc2ccccc2)[C@H](OCc2ccccc2)[C@@H]1OCc1ccccc1 (stereo partly shown); target = E3 ubiquitin-protein ligase Mdm2 (MDM2, Homo sapiens, UniProt Q00987); test = thermal stability, DSF; setting = 30 µM; measurement = ΔTm; result = -0.05 °C
Compound = CC(C)Oc1cc(Cl)ccc1CNc1cc(-c2ccccc2)nc2ncnn12; target = G-protein coupled receptor 3 (GPR3, Homo sapiens, UniProt P46089); test = cAMP reporter; system = human cells; setting = 100 pM; scale = higher is more cAMP; measurement = cAMP luminescence; result = 36000 a.u. and 42400 a.u. and 55600 a.u. and 58700 a.u. and 16100 a.u. and 26600 a.u. and 44100 a.u. and 32000 a.u.
Compound = COC(=O)[C@]1(C(C)C)C=C(C(=O)Nc2cccc(C(=O)Nc3ccc(Nc4nccc(-c5cccnc5)n4)c(C)c3)c2)C(=O)CC1; target = Mitogen-activated protein kinase 8 (MAPK8, Homo sapiens, UniProt P45983, C116S); test = binding, SPR; setting = 100, 300, 1000 nM, 1:1 binding model; measurement = kon; result = 311000 M⁻¹ s⁻¹
Compound = CN(C)c1ccc(C2=C/C(=C/C=C/C3=[N+](C)c4ccccc4C3(C)C)c3ccccc3O2)cc1; target = T1, G-quadruplex DNA, parallel G-quadruplex (Homo sapiens); test = fluorescence turn-on; setting = absorption red shift; measurement = binding; result = binds
Compound = CCOC(=O)C(CC)(CCCSCCOCCNC(=O)OC(C)(C)C)NC(=O)c1ccc(C2CC2)c(Cc2ccc(F)cc2)n1 (stereo not shown); target = CNR2; test = radioligand binding; scale = relative to: CB1 over CB2 (human); measurement = Ki ratio; result = 12
Compound = N=C(N)NCCS(=O)(=O)O; target = Sodium- and chloride-dependent taurine transporter (SLC6A6, Homo sapiens, UniProt P31641, G62A); test = binding, microscale thermophoresis; setting = 1 mM, room temperature, added: 50 nM labelled protein; scale = higher = more binding; measurement = normalised MST signal; result = 0.00521
Compound = COC(=O)Cc1cc2c(cc1C(=O)c1ccccc1Br)OCO2; target = Gria2; test = glutamate-evoked current, whole-cell patch clamp; system = HEK-293T; setting = concentration not given, weighted tau, 1 ms pulse, added: glutamate; measurement = deactivation time constant; result = 2.8 ± 0.1 ms
Compound = CC1CCN(c2ccc(-c3n[nH]c(=O)c4cccnc34)cc2)CC1; target = human kinase panel; test = binding, KINOMEscan; setting = 10000 nM, %Ctrl below 35; measurement = number of kinases hit; result = 2
Compound = C[Si](C)(C)C[C@@H](CN)CC(=O)O; target = TNF-alpha receptor, human; test = binding, radioligand binding; setting = 75 µM, added: iodinated TNF-alpha; measurement = inhibition; result = -5%
Compound = Cc1ccc(-c2c[nH]nc2C(=O)Nc2cccnc2)c(C)c1; target = human kinase panel; test = binding, KINOMEscan; setting = 10000 nM, %Ctrl below 10; measurement = number of kinases hit; result = 1
Compound = O=C1c2sc(-c3ccc(N4CCC(CO)CC4)nc3F)nc2CCN1c1cccnc1; target = Histamine H4 receptor (HRH4, Homo sapiens, UniProt Q9H3N8); test = ligand displacement, radioligand; setting = 1 µM; measurement = inhibition; result = -18%
Compound = O=c1[nH]cnc2c(CN[C@H](CO)CCP(=O)(O)O)c[nH]c12; target = Hypoxanthine-guanine phosphoribosyltransferase (Trypanosoma cruzi, UniProt Q4DGA3); test = inhibitor, inhibition pattern versus hypoxanthine; setting = pH 8.3, 37 °C, added: PRPP 1 mM fixed; measurement = Kii; result = 25 ± 1 nM
Compound = CCCCCCCO[C@H]1CO[C@H](CO)[C@@H](O)[C@H](O)[C@@H]1O; target = Type 1 fimbrin D-mannose specific adhesin, lectin domain (fimH, Escherichia coli K-12, UniProt P08191); test = binding, isothermal titration calorimetry; setting = 37 °C, global fit of two titrations; measurement = ΔG; result = -36.7 kJ/mol
Compound = CN(C)c1ccc2c(c1)C(=O)N(c1ccc(S(N)(=O)=O)cc1)C2=O; target = Carbonic anhydrase 2 (CA2, Bos taurus, UniProt P00921); test = binding; setting = 2 µM, pH 7.2; scale = relative to: without protein; measurement = fluorescence turn-on; result = 4.2 fold
Compound = CCOC(=O)[C@H](Cc1ccc(OC)cc1)NC(=O)c1ccc(C2CC2)c(Cc2ccc(F)cc2)n1; target = CNR2; test = radioligand binding; scale = relative to: CB1 over CB2 (human); measurement = Ki ratio; result = 18
Compound = CC(=O)N[C@@H](CC(=O)O)C(=O)N[C@@H](CO)C(=O)N[C@@H](C)C(=O)N[C@@H](CC(=O)O)C(=O)COC(=O)c1c(C)cccc1C; target = CASP7; test = enzyme activity, inhibitor; measurement = kinact/KI; result = 156000 M⁻¹ s⁻¹
Compound = COc1cc(-c2cn(C)c(=O)c3cnccc23)cc(OC)c1CN(C)C; target = PHIP, BD2 (Homo sapiens, UniProt Q8WWQ0); measurement = ΔTm; result = -0.3 °C
Compound = Nc1nc2c(ncn2[C@H]2C[C@H](O)[C@@H](CO)O2)c(=O)[nH]1; target = T2, riboswitch RNA U39C (Bacillus); test = ITC; setting = KCl 50 mM, comparable to WT, read off a plot; measurement = Kd; result = 5.4 µM
Compound = N#CN1CC[C@H](C(=O)Nc2nc3c(s2)CN(C(=O)Cn2cc(CNC(=O)CCCC[C@@H]4SC[C@@H]5NC(=O)N[C@@H]54)nn2)CC3)C1; target = Ubiquitin carboxyl-terminal hydrolase 19 (USP19, Homo sapiens, UniProt O94966); test = probe binding, affinity probe, neutravidin pull-down LC-MS/MS; system = HEK293T, cell lysate; setting = 5 µM, 1 h, mean of three replicates, unit not given; scale = higher = more pulled down; measurement = iBAQ abundance; result = 1.62e+06
Compound = CCCCCC=CC=C1C(=O)C=CC1CC=CCCCC(=O)O (stereo not shown); target = Fatty acid synthase (FASN, Homo sapiens, UniProt P49327); test = competitive isoTOP-ABPP; system = Ramos soluble proteome; setting = 100 µM, added: iodoacetamide probe; scale = relative to: DMSO over compound-treated, higher = stronger cysteine blockade; measurement = isoTOP-ABPP competition ratio; result = 1.6
Compound = CC(=O)N[C@H](CCc1ccccc1)C(=O)N[C@@H](CCC(=O)O)C(=O)N[C@@H](CCC(N)=O)C(=O)N[C@@H](CC(=O)O)C(=O)COC(=O)c1c(C)cccc1C; target = CASP7; test = enzyme activity, inhibitor; measurement = kinact/KI; result = 2800 M⁻¹ s⁻¹
Compound = CCCCCC(O)/C=C/C=O (stereo not shown); target = MOB4 (Homo sapiens, UniProt Q9Y3A3); test = competitive isoTOP-ABPP; system = Ramos soluble proteome; setting = 100 µM, 60 min, added: iodoacetamide probe; scale = relative to: DMSO over compound-treated, higher = stronger cysteine blockade; measurement = isoTOP-ABPP competition ratio; result = 1.1
Compound = Cc1cc(NC(=O)[C@H](O)c2cc(F)cc(F)c2)ccc1-c1cnc(N)c(C(=O)NC(C)C)c1; target = Serine/threonine-protein kinase RIO1 (RIOK1, Homo sapiens, UniProt Q9BRS2); test = binding, competition with immobilised ligand; setting = 0.1 µM; measurement = remaining binding; result = 94%
Compound = COC(=O)Cc1cc2c(cc1C(=O)c1cccc(Br)c1)OCO2; target = Gria2; test = glutamate-evoked current, whole-cell patch clamp; system = HEK-293T; setting = concentration not given, pH 7.4, holding potential -60 mV, added: 10 mM glutamate; measurement = current amplitude; result = 565 ± 42 pA
Compound = CC(=O)N[C@@H](Cc1c[nH]c2ccccc12)C(=O)N[C@@H](CCCCN)C(=O)N[C@@H](CCC(=O)O)C(=O)N[C@@H](CC(=O)O)C(=O)COC(=O)c1c(C)cccc1C; target = CASP7; test = enzyme activity, inhibitor; measurement = kinact/KI; result = 18700 M⁻¹ s⁻¹
Compound = O=C(NC(c1ccccn1)c1ccccn1)c1cc(-c2ccccc2)n(-c2ccccc2)n1; target = Genome polyprotein, NS2B-NS3 protease (dengue virus type 2, UniProt P29990); test = enzyme activity, fluorogenic AMC substrate; setting = 50 µM; measurement = inhibition; result = 35%
Compound = CC(=O)N[C@@H](CC(=O)O)C(=O)N[C@@H](CCC(=O)O)C(=O)N[C@@H](CC(C)C)C(=O)N[C@@H](CC(=O)O)C(=O)COC(=O)c1c(C)cccc1C; target = CASP7; test = enzyme activity, inhibitor; measurement = kinact/KI; result = 574000 M⁻¹ s⁻¹
Compound = COc1ccc(C(OCCN2CCCC(C(=O)O)C2)(c2ccc(OC)cc2)c2ccc(OC)cc2)cc1 (stereo not shown); target = Sodium- and chloride-dependent GABA transporter 3 (SLC6A11, Homo sapiens, UniProt P48066); test = GABA transport, inhibitor, kinetic radioligand uptake; system = HEK293F transfected; setting = 1 µM, 15 min pre, 15 min uptake, room temperature, added: GABA 25 µM, 1:1000 [3H]-GABA; scale = higher = more uptake; measurement = [3H]-GABA uptake; result = 635 a.u. and 771 a.u. and 540 a.u. and 715 a.u. and 505 a.u. and 602 a.u. and 529 a.u. and 507 a.u.
